Measured values from different studies.
Protocols differ between the studies behind these lines. “And” joins repeats or separate records; there may be more than shown.
Cell line: OVCAR-5

| Structure (SMILES) | test | test system | setting | scale | quantity | value |
| --- | --- | --- | --- | --- | --- | --- |
| C#C[C@@]1(O)[C@@H](CO)O[C@@H](n2ccc3c(N)ncnc32)[C@@H]1O | SRB | – | NCI-60 screen | – | TGI | 8.54 µM |
| O=C(Nc1nnc2n3c(=S)[nH][nH]c3nc(-c3ccc(Cl)cc3)c1-2)c1ccccc1 | SRB | – | 10 µM, NCI60 single-dose screen | baseline: untreated | cell growth | 116% |
| O=C1NCCc2[nH]c(-c3ccncc3)cc21 | MTS | – | NCI60 panel | – | IC50 | 5.31 µM |
| O=C(Nc1nnc2[nH]c(=S)[nH]c(-c3ccc(Cl)cc3)c1-2)c1ccccc1 | SRB | – | 10 µM, NCI60 single-dose screen | baseline: untreated | cell growth | 108% |
| CC(=O)O[C@H]1C(=O)[C@@]2(C)[C@H]([C@H](OC(=O)c3ccccc3)[C@]3(O)C[C@H](OC(=O)[C@H](O)[C@@H](NC(=O)c4ccccc4)c4ccccc4)C(C)=C1C3(C)C)[C@]1(OC(C)=O)CO[C@@H]1C[C@@H]2O | sulforhodamine B | Ovarian cancer | NCI60 screen | – | TGI | 0.79 µM |
| C#C[C@@]1(O)[C@@H](CO)O[C@@H](n2cc(Br)c3c(N)ncnc32)[C@@H]1O | SRB | – | NCI-60 screen | – | TGI | > 100 µM and 56.7 µM |
| O=C(Nc1nnc2n3c(nc(-c4ccc(Cl)cc4)c1-2)SCC3=O)c1ccccc1 | SRB | – | 10 µM, NCI60 single-dose screen | baseline: untreated | cell growth | 101% |
| CCCCS(=N)(=O)CCC(N)C(=O)O (centres unmarked) | LC-ESI-MS/MS, item: glutathione | – | 200 µM, 12 h | baseline: untreated | remaining GSH | 0.4% |
| COc1ccc(OC)c(-c2nc3ccc(-c4nc5ccc(N6CCN(C)CC6)cc5[nH]4)cc3[nH]2)c1 | SRB | – | 10 µM, 48 h | – | growth percent | 120% |
| Cc1cc(-c2ccccc2)n(-c2nc(-c3ccc(Cl)cc3)c3c(NC(=O)c4ccccc4)nnc-3[nH]2)n1 | SRB | – | 10 µM, NCI60 single-dose screen | baseline: untreated | cell growth | 99.7% |
| CCCCN1CCN(c2ccc3[nH]c(-c4ccc5[nH]c(-c6ccc(OCC)c(OCC)c6)nc5c4)nc3c2)CC1 | SRB | – | 10 µM, 48 h | – | growth percent | 37.7% |
| CCOC(=O)CSc1nc(-c2ccc(Cl)cc2)c2c(NC(=O)c3ccccc3)nnc-2[nH]1 | SRB | – | 10 µM, NCI60 single-dose screen | baseline: untreated | cell growth | 101% |
| CCCCN1CCN(c2ccc3[nH]c(-c4ccc5[nH]c(-c6ccc(C(F)(F)F)cc6)nc5c4)nc3c2)CC1 | SRB | – | 10 µM, 48 h | – | growth percent | -89.2% |
| COC(=O)/C=C1\C(=O)C=C2C3CC4CC(CCC4(C)N21)C3(C)NC(C)=O (centres unmarked) | cell growth | – | NCI screen | – | IC50 | 18.8 µM |
| CCCCN1CCN(c2ccc3[nH]c(-c4ccc5[nH]c(-c6cc(OC)c(OC)c(OC)c6)nc5c4)nc3c2)CC1 | SRB | – | 10 µM, 48 h | – | growth percent | 117% |
| Cn1cncc1C1=CN(c2ncnc3[nH]cnc23)CCS1 | – | – | ovarian cancer | – | TGI | 162 µM |
| CCOc1ccc(-c2nc3cc(-c4nc5cc(N6CCN(C)CC6)ccc5[nH]4)ccc3[nH]2)cc1OCC | SRB | – | 10 µM, 48 h | – | growth percent | 44.5% |
| Cc1cc(C)n(C(=S)[S][Au][PH](CCCCCC[PH]([Au][S]C(=S)n2nc(C)cc2C)(c2ccccc2)c2ccccc2)(c2ccccc2)c2ccccc2)n1 | cell growth, NCI-60 screen | – | ovarian cancer | – | log10 TGI | -5.17 |
| CCCCN1CCN(c2ccc3nc(-c4ccc5nc(-c6cc(OC)ccc6OC)[nH]c5c4)[nH]c3c2)CC1 | SRB | – | 10 µM, 48 h | – | growth percent | 117% |
| CCN(CC)c1ccc(C=NNC(=O)CSc2nc3ccccc3c(=O)n2Cc2ccc(S(N)(=O)=O)cc2)c(O)c1 | NCI five-dose screen | – | – | – | TGI | > 100 µM |
